Published values gathered from unrelated publications.
Lines come from different studies, so protocols differ. Numbers after ± are the reported error.
PSMB5: Proteasome Macropain subunit MB1 (PSMB5, Homo sapiens, UniProt P28074)
Dihydrofolate reductase type 2: Dihydrofolate reductase type 2 (Escherichia coli, UniProt P00383)
Phospholipase A2, membrane associated: Phospholipase A2, membrane associated (Homo sapiens, UniProt P14555)
PPARG ligand-binding domain: Peroxisome proliferator-activated receptor gamma, ligand-binding domain (PPARG, Homo sapiens, UniProt P37231)
Proteasome component C5/PSMB5: Proteasome component C5/PSMB5 (Homo sapiens, UniProt P20618+P28074)
CSNK1D: Casein kinase I isoform delta (CSNK1D, Homo sapiens, UniProt P48730)
Protein AF-9 with AF4: Protein AF-9, with AF4 (Homo sapiens, UniProt P42568)
CYP2E1: Cytochrome P450 2E1 (CYP2E1, Homo sapiens, UniProt P05181)
PLG: Plasminogen (PLG, Homo sapiens, UniProt P00747)
TGM2: Protein-glutamine gamma-glutamyltransferase (TGM2, Homo sapiens, UniProt P21980)
RET: Proto-oncogene tyrosine-protein kinase receptor Ret (RET, Homo sapiens, UniProt P07949)
Protein AF-9 with DOT1L: Protein AF-9, with DOT1L (Homo sapiens, UniProt P42568)

COc1ccc(C[C@H](NC(=O)[C@H](C)NC(=O)CN2CCOCC2)C(=O)N[C@@H](CC2CCC(C(F)(F)F)CC2)C(=O)[C@@]2(C)CO2)cc1 (stereo partly shown)
IC50 (PSMB5; competitive ABPP; Raji cell lysate): > 10 µM

COC(=O)c1ccc2nc(-c3ccc(OCCCN4CCN(C)CC4)cc3)[nH]c2c1
IC50 (Dihydrofolate reductase type 2; enzyme activity; pH 7): > 500 µM

Cc1nc2ccc(Br)cc2c(=O)n1/N=C/c1ccc(C(=O)O)cc1
IC50 (Phospholipase A2, membrane associated; enzyme activity, inhibitor, colorimetric): 68.1 ± 4.74 µM

O=C(Nc1ccc(CCF)cc1)c1cc([N+](=O)[O-])ccc1Cl
IC50 (PPARG ligand-binding domain; binding, scintillation proximity; His-tagged ligand-binding domain; added: [3H]rosiglitazone): 0.0301 ± 0.0058 µM

CC(C)C[C@H](NC(=O)OCc1ccccc1)C(=O)N[C@@H](CC(C)C)C(=O)NN(CC(C)C)C(=O)/C=C/C(=O)N(Cc1ccccc1)Cc1ccccc1
IC50 (Proteasome component C5/PSMB5; chymotrypsin-like activity, inhibitor; human 20S proteasome; added: Suc-LLVY-AMC 100 µM): 1.2 ± 1.1 µM

Nc1ccccc1-c1nc(-c2ccc(F)cc2)c(-c2ccncc2)[nH]1
IC50 (CSNK1D; inhibitor): 2.47 ± 0.165 µM

COC(=O)c1ccc2nc(-c3ccc(O)cc3)[nH]c2c1
IC50 (Dihydrofolate reductase type 2; enzyme activity; pH 7): > 30 µM

c1cc(-c2cc3ncc(OCC4CCNCC4)nc3cc2-c2cccc(N3CCCCC3)c2)cc(N2CCCCC2)c1
IC50 (Protein AF-9 with AF4; AlphaScreen): 1.7 ± 0.26 µM

COc1ccc([N+](=O)[O-])cc1-c1nc(-c2ccc(F)cc2)c(-c2ccncc2)[nH]1
IC50 (CSNK1D; inhibitor): 0.0519 ± 0.0064 µM

CC(=O)C(=O)N(CC(C)C)NC(=O)[C@H](Cc1ccccc1)NC(=O)[C@H](CC(C)C)NC(=O)[C@H](CCc1ccccc1)NC(=O)OCc1ccccc1
IC50 (Proteasome component C5/PSMB5; β5 chymotrypsin-like activity, inhibitor; added: Suc-LLVY-AMC 100 µM): 5.4 ± 1 µM

COC(=O)c1ccc2nc(-c3ccc(OCCCNCc4ccccc4)c(Br)c3)[nH]c2c1
IC50 (Dihydrofolate reductase type 2; enzyme activity; pH 7): > 30 µM

c1ccc(COc2ccc(Nc3ccc4ncc(OCC5CCNCC5)nc4c3)cc2)cc1
IC50 (Protein AF-9 with AF4; AlphaScreen): 2.6 ± 0.56 µM

Fc1ccc(-c2nc(-c3c(Cl)cccc3Cl)[nH]c2-c2ccncc2)cc1
IC50 (CSNK1D; inhibitor): 0.0208 ± 0.0094 µM

CCCC[C@H]1CN(c2cccc(OC(F)(F)F)c2)C(=O)CN1Cc1cncn1Cc1ccc(Br)cc1
IC50 (Protein farnesyltransferase (Rattus norvegicus, UniProt Q02293+Q04631); inhibitor): ~0.06 µM

COc1ccccc1OCCNCC(O)COc1cccc2[nH]c3ccccc3c12 (stereo not shown)
IC50 (ADRB3 (Homo sapiens, UniProt A8KAG8); antagonist, cAMP): 0.00558 µM

COc1ccc(C[C@H](NC(=O)[C@H](C)NC(=O)CN2CCOCC2)C(=O)N[C@@H](CC2CCC(OC)CC2)C(=O)[C@@]2(C)CO2)cc1 (stereo partly shown)
IC50 (PSMB5; competitive ABPP; Raji cell lysate): > 10 µM

CCc1oc2ccccc2c1C(=O)c1cc(I)c(O)c(I)c1
IC50 (CYP2E1; p-nitrophenol hydroxylation; baculosomes; 10 min): 0.03 µM

COc1cccc(CNC(=O)c2cn(Cc3ccc(Cn4ccccc4=O)cc3)nc2C2CC2)c1F
IC50 (PLG): > 40 µM

CC(C)N(CCC(=O)c1ccc2ccccc2c1)Cc1ccccc1
IC50 (TGM2; enzyme activity, inhibitor; added: DTT 10 mM): 3 ± 0.5 µM

CC(C)C[C@H](NC(=O)[C@H](CCc1ccccc1)NC(=O)OCc1ccccc1)C(=O)N[C@@H](Cc1ccccc1)C(=O)NN(CC(C)C)C(=O)/C=C/C(=O)OCc1ccccc1
IC50 (Proteasome component C5/PSMB5; chymotrypsin-like activity, inhibitor; human 20S proteasome; added: Suc-LLVY-AMC 100 µM): 0.9 ± 0.3 µM

CCc1nc2c(C)cc(N3CCN(CC(=O)N4CC(O)C4)CC3)cn2c1N(C)c1nc(-c2ccc(F)cc2)c(C#N)s1
IC50 (SLCO1B1 (Homo sapiens, UniProt Q9Y6L6); transport, inhibitor, in vitro): 2.44 µM

Cc1ncc(C(=O)N[C@@H](CC(C)C)C(=O)N[C@@H](CC2CCC(C3CCCCC3)CC2)C(=O)N[C@H](/C=C/S(C)(=O)=O)Cc2ccc(CN)cc2)s1 (stereo partly shown)
IC50 (PSMB5; inhibitor, competitive ABPP; Raji cell lysate; constitutive proteasome β5c): 1.05 µM

COc1cccc2c(N3CCC(CCP(=O)(O)O)CC3)ncnc12
IC50 (Ectonucleotide pyrophosphatase/phosphodiesterase family member 3 (Homo sapiens, UniProt O14638, E275D); cGAMP hydrolysis, inhibitor, cGAMP luciferase; overnight, added: cGAMP 2 µM): 0.13 µM

N=C(N)c1ccc(CNC(=O)c2cnn(Cc3ccccc3)c2)cc1
IC50 (Prothrombin (F2, Homo sapiens, UniProt P00734)): 30 µM

COc1ccc(NC(=O)Nc2ccccc2-c2nc(-c3ccoc3)n[nH]2)cc1
IC50 (RET; kinase activity, inhibitor; replicate three, added: 1 µM ATP, poly(Glu,Tyr)): 36.7 µM

Cc1ncc(C(=O)N[C@@H](CC2CCCCC2)C(=O)N[C@@H](CC2CCCCC2)C(=O)N[C@H](/C=C/S(C)(=O)=O)Cc2ccc(CN)cc2)s1
IC50 (PSMB5; competitive ABPP; Raji cell lysate): > 10 µM

Fc1ccc(-c2nc[nH]c2-c2ccncc2)cc1
IC50 (CSNK1D; inhibitor): 0.0333 ± 0.0084 µM

Cc1ncc(C(=O)N[C@@H](CC(C)C)C(=O)N[C@@H](CC2CCCC3CCCCC32)C(=O)N[C@H](/C=C/S(C)(=O)=O)Cc2ccc(CN)cc2)s1 (stereo partly shown)
IC50 (PSMB5; competitive ABPP; Raji cell lysate): > 10 µM

CN1CCN(c2ccc(Nc3ncc4cc(C#N)c(=O)n(C5CCCC5)c4n3)cc2)CC1
IC50 (FES (Homo sapiens, UniProt P07332)): 0.295 µM

COc1cc(O)c(-c2nc(-c3ccc(F)cc3)c(-c3ccncc3)[nH]2)c(OC)c1
IC50 (CSNK1D; inhibitor): 5.34 ± 0.497 µM

COc1cc(NC(=O)Nc2ccc(C)c(F)c2)cc2sc(NC(=O)c3ccccc3)nc12
IC50 (RET; kinase activity, inhibitor; replicate three, added: 1 µM ATP, poly(Glu,Tyr)): 7.87 µM

COc1ccnc(CNC(=O)c2cn(Cc3ccc(Cn4ccccc4=O)cc3)nc2C2CC2)c1F
IC50 (PLG): > 40 µM

COc1ccc(-c2nc3ccc(C(=O)NCc4ccccc4)cc3[nH]2)cc1Br
IC50 (Dihydrofolate reductase type 2; enzyme activity; pH 7): > 30 µM

Fc1cccc(Nc2ccc3ncc(OCC4CCNCC4)nc3c2)c1
IC50 (Protein AF-9 with DOT1L; DOT1L binding, AlphaLISA): 2.1 µM

O=C1C=Cc2c(c(-c3ccoc3)cn2S(=O)(=O)c2ccccc2)C1=O
IC50 (ELAV-like protein 1, RRM1-RRM2 domains (ELAVL1, Homo sapiens, UniProt Q15717); HuR-RNA complex formation, REMSA; added: 1 nM labelled RNA probe): 10.3 µM

CC(C)NC(=O)COc1cccc(-c2nc(Nc3ccc4[nH]ncc4c3)c3ccccc3n2)c1
IC50 (UGT2B15 (Homo sapiens, UniProt P54855); enzyme activity, inhibitor; recombinant microsomes; added: diclofenac): 7.98 µM

O=c1nc(SCc2cc(F)cc(C(F)(F)F)c2)nc(SCc2ccc3sccc3c2)[nH]1
IC50 (TOP2A (Homo sapiens, UniProt P11388); ATPase activity, ATP-competitive inhibitor; added: ATP 1 mM): 9.3 µM

COc1ccc([N+](=O)[O-])cc1C(=O)Nc1ccc(CCF)cc1
IC50 (PPARG ligand-binding domain; binding, scintillation proximity; His-tagged ligand-binding domain; added: [3H]rosiglitazone): 0.0466 ± 0.0007 µM

Cc1cccc(Nc2ccc3ncc(OCC4CCNCC4)nc3c2)c1
IC50 (Protein AF-9 with DOT1L; DOT1L binding, AlphaLISA): 4.7 µM

CC1CC(C)CN(c2ccc(C=NNc3nc(-c4ccc([N+](=O)[O-])cc4)cs3)cc2)C1 (stereo not shown)
IC50 (alpha-glucosidase; enzyme activity, inhibitor; added: p-nitrophenyl-alpha-D-glucopyranoside): 17.2 µM

Cc1ncc(C(=O)N[C@@H](CC2CCCC3CCCCC32)C(=O)N[C@@H](CC(C)C)C(=O)N[C@H](/C=C/S(C)(=O)=O)Cc2ccc(CN)cc2)s1 (stereo partly shown)
IC50 (PSMB5; competitive ABPP; Raji cell lysate): 0.419 µM

Cc1cccc(-c2nc(-c3ccc(N)cc3)[nH]c2-c2ccncc2)c1
IC50 (CSNK1D; inhibitor): 3.35 ± 0.349 µM

O=C1NC(CF)(CF)C(=O)N1c1ccc(F)c(C(F)(F)F)c1
IC50 (Androgen receptor (AR, Homo sapiens, UniProt P10275); reporter gene, antagonist; LAPC4; 24 h, added: DHT 10 nM): 9 µM

COCC(=O)N1CCC[C@H](C(=O)NCc2nc(-c3ccc(C#N)cc3)cs2)C1
IC50 (uncharacterized protein (Plasmodium falciparum, UniProt A0A5K1K7U1+Q8I261+Q8IJT1); Suc-LLVY-AMC): 0.042 ± 0.01 µM

CC[C@@H]1[C@H](F)C(=O)N[C@@H]1COc1nccc2cc(C(N)=O)c(OC)cc12
IC50 (AXL (Homo sapiens, UniProt P30530); ATP-site binding, ActivX kinase profiling; THP-1 cell lysate; AXL activation-loop probe peptide): 2.9 µM

COc1ccc(-c2ccc3ncc4c(c3c2)n([C@@H]2CCN(C)CC2(F)F)c(=O)n4C)cn1
IC50 (PRKDC (Homo sapiens, UniProt P78527); DNA-PKcs S2056 autophosphorylation, inhibitor, in-cell western; HT-29; added: 10 Gy radiation): 0.169 ± 0.0134 µM

C=CC(O)CO (stereo not shown)
IC50 (CYP2E1; 4-nitrophenol hydroxylation, inhibitor; pooled human liver microsomes; 30 min, pH 7.4, zinc absent, added: 4-nitrophenol 50 µM): 3400 µM

O=C1C(SCCO)=C(SCCO)C(=O)c2ccccc21
IC50 (TGM2; enzyme activity, inhibitor; added: DTT 10 mM): > 50 µM

CCn1c(-c2nc3ccc(C(=O)N4CCCC(N)C4)cc3n2C)cc2ccccc21 (stereo not shown)
IC50 (ADRB2 (Homo sapiens, UniProt P07550); antagonist, TR-FRET): > 31.6 µM

CC/C(=N\NC(=O)NCc1cccc(O)c1)c1ccc(O)c(C)c1O
IC50 (RPS6KB1 (Homo sapiens, UniProt P23443); kinase activity, inhibitor): 0.0364 ± 0.00261 µM

CC1CC(C)CN(c2ccc(C=NNc3nc(-c4ccc(C#N)cc4)cs3)cc2)C1 (stereo not shown)
IC50 (alpha-glucosidase; enzyme activity, inhibitor; added: p-nitrophenyl-alpha-D-glucopyranoside): > 100 µM

Cc1nc2ccc(Cl)cc2c(=O)n1NC1=NC(=O)CS1
IC50 (Phospholipase A2, membrane associated; enzyme activity, inhibitor, colorimetric): 57.01 ± 0.57 µM

For quick reference, copied from above:
CC(=O)C(=O)N(CC(C)C)NC(=O)[C@H](Cc1ccccc1)NC(=O)[C@H](CC(C)C)NC(=O)[C@H](CCc1ccccc1)NC(=O)OCc1ccccc1
IC50 (Proteasome component C5/PSMB5; β5 chymotrypsin-like activity, inhibitor; added: Suc-LLVY-AMC 100 µM): 5.4 ± 1 µM

COc1cc(O)c(-c2nc(-c3ccc(F)cc3)c(-c3ccncc3)[nH]2)c(OC)c1
IC50 (CSNK1D; inhibitor): 5.34 ± 0.497 µM

Fc1ccc(-c2nc(-c3c(Cl)cccc3Cl)[nH]c2-c2ccncc2)cc1
IC50 (CSNK1D; inhibitor): 0.0208 ± 0.0094 µM

CCc1oc2ccccc2c1C(=O)c1cc(I)c(O)c(I)c1
IC50 (CYP2E1; p-nitrophenol hydroxylation; baculosomes; 10 min): 0.03 µM

Cc1ncc(C(=O)N[C@@H](CC2CCCC3CCCCC32)C(=O)N[C@@H](CC(C)C)C(=O)N[C@H](/C=C/S(C)(=O)=O)Cc2ccc(CN)cc2)s1 (stereo partly shown)
IC50 (PSMB5; competitive ABPP; Raji cell lysate): 0.419 µM

COc1ccc(-c2nc3ccc(C(=O)NCc4ccccc4)cc3[nH]2)cc1Br
IC50 (Dihydrofolate reductase type 2; enzyme activity; pH 7): > 30 µM
